# Measured values pooled from the literature.
# Parts stem from different laboratories: compare values within a part only.

# Block 1
# Target: Interferon regulatory factor 3, full length, phosphomimetic (IRF3, Homo sapiens, UniProt Q14653, residues 1-427, S386D/S396D/S398D/S402D/T404D/S405D)
# UniProt Q14653, sequence (whole entry, unmodified, looked up): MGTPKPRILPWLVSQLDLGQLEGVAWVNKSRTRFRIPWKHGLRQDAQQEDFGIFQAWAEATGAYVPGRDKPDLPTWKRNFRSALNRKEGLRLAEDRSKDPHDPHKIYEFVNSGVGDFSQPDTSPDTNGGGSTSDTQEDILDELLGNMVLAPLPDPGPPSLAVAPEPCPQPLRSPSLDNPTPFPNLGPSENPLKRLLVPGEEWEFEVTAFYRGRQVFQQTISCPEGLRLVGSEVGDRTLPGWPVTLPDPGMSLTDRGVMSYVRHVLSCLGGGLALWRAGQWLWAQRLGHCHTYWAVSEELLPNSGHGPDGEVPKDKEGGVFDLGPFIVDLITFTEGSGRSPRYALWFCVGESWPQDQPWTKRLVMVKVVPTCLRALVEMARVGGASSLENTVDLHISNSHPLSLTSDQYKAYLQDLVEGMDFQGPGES
# Method: protein-binding microarray
# Form: double-stranded DNA, one strand shown
# Matrix: in vitro
# Tested at: 2540 nM top
# Setting: 60-bp whole probe
# Together with: salmon DNA 0.4 mg/ml
# Reference: random background probes
# Direction: higher = stronger binding
# All sequences stand within: GCCTAGCAC … GTCTTGATTCGCTTGACGCTGCTG
Sequence,fitted relative affinity [z-score]
GACGGTATAGGGTTTCGGGACGTGCTA,0.916
TTAGGTCTCCATTTCCTTTAGTGCTAG,3.57
TCAAGACTCATAATGGCTAGGTGCTAG,-0.252
TTAGATTCCAGTTTTGATTAGTGCTAG,2.94
TCACATCTTGTTCCCAGACTGTGCTAG,1.23
TTAGAAATGAGTTTCGATTAGTGCTAG,2.99
TTAGGTATCGGTCTCGGGTAGTGCTAG,3.86
CTAGATATCGGGTATCGATTAGTGCTA,0.46
CACGGTATCGACTTTCGGGACGTGCTA,1.12
GACGGAATCGGTATCGGGACGTGCTAG,2.02
GACAGTATCGGACTGGGGACGTGCTAG,1.53
CTAGAACTGGGGACTGGATTAGTGCTA,-0.631
TTAGGTAACGGTCTCGGTTAGTGCTAG,0.472
GACGGTTTCGACTTTCGAGACGTGCTA,3.99
CTTTACATGAGTTTAGAGCCGTGCTAG,0.488
GACGGTTTAGACACTGGGGACGTGCTA,0.165
TTAGAACTGGGTATCGGTTAGTGCTAG,0.597
TAAGGTTTCCTACTGCTTTAGTGCTAG,4.74
TCATTTCTATTTTCTGAACTGTGCTAG,3.71
TTTTTTTTTTTTTTTTGGAAGTGCTAG,1.55
TGGTCTTTCTGTTTTCTCCAGTGCTAG,3.01
TTAGGTATGCTTTTCCTTTAGTGCTAG,1.25
TCACTTCCCAATAATCTTACTGTGCTA,1.92
GTAGGTTTCGGACTGGGTTAGTGCTAG,4.13
GACGGTATCGGTTATCGGGACGTGCTA,3.98

# Block 2
# Target: RNA binding protein fox-1 homolog 2, RRM domain, GST-SBP tag (RBFOX2, Homo sapiens, UniProt O43251-10, residues 100-194)
# Method: RNA Bind-n-Seq
# Form: RNA
# Matrix: in vitro
# Tested at: 365 nM
# Setting: natural RNA segment, single round, ends assumed
# Reference: no-protein control
# Direction: higher = stronger binding
# All sequences stand within: GGGAGUUCUACAGUCCGACGAUC … UGGAAUUCUCGGGUGCCAA
# Residues (chain): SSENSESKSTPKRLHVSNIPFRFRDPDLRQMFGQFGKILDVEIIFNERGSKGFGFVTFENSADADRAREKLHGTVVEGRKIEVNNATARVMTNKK
Sequence,RBNS enrichment (R)
ACAUUUAUUUUAUGGUUUCUUGUCAAGAUUUAAUCUAAAUAUUUUAAAAGCAAUUCCAAGGAAGCAUACAAGAUUUUCUUUUAAAAUAACAAAUUUAAUAUAAAUCAAAG,0.688
CUGUUGGCUCAUUCUAUUUUGACUAAUGUUACAAAGUACUGAAAAAACUGUAGAAUAGAUAUUUUUAAGGCUAUAUGUAGUGUAUGUGUCUUUUAAUAGAUAUAGGCAUC,0.403
UCAUCAAAUCUCCAAACUCUUAAAGGAUGCUUUCGGAAAACACGCUGUAUACCUAGAUGAUGACUAAAUGCAAAAUCCUUGGGCUUUGGUUUUUUUCUAGUAAGGAUUUU,0.383
AAAUCACUGUAAUUAAAAUUGGUGUUAAAUCCUUUGGGUUUUCCACUGCCUUAAAAUGAUACUUAUUUCCUUAAAAAAGAAAAUAAAAUAAGAGAUAUCAGUCAGAAUUG,0.326
GUUCUUUUGGGGGUAAGGGGCUAACUGCUCAAGAAAAUCUUGAUCCCCUCUCUUGUCUCCAUUAUUUUAAUUGCUUUUUCUGGCAGCACGGUGGGGACAGGGCAGAUUUA,0.433
GGGGUAGGAUGGUUGGGACCAGAUUGACUACCCUGUACCCUUCCUUCUUCCCCAAUAUGCCUGCGCCAUCUUCACAUUCUGAAGUUGAAACCCAUGAUCACCCCUUUGAG,1.02
UUUCCCCCAGAUGUUGGGUUGCAUGCCAAUAAACAUGUGGCUUCUUCUCAAAGCCUGUCUUCAAAAAAGCUGAGGCAAAAUGCUAAUAUUAAUUCAGCCUGGCCUCGAAA,2.17
CCAGAUCACCCACAUUCCAGAGGCAUUUAAAUAAACAGAGAUGUGGGAUGCAGGACCCCAGCUUCCGUUCCCAAGCCCUGUUGGGAGUCCUUUCCAGUGCUUCAGGAUGC,0.441
CUUUCUUUUGGUCCUUCCUGGAAUGAACAGGUUCCCUCCCUGCCACCUGUGAGGAGAGUUGGGGCCCAGCCGUCUUCCUGGCCUCCUUCCUUUCCUCGUGGCAGAGGCCU,0.326

# Block 3
# Target: Sal-like protein 4, full length isoform B (SALL4, Homo sapiens, UniProt Q9UJQ4-2, residues 1-616)
# Method: universal PBM
# Form: double-stranded DNA, one strand shown
# Matrix: in vitro
# Tested at: not given
# Setting: 8-mer, flanks averaged, mean of replicates
# Direction: higher = stronger binding
# Residues (chain): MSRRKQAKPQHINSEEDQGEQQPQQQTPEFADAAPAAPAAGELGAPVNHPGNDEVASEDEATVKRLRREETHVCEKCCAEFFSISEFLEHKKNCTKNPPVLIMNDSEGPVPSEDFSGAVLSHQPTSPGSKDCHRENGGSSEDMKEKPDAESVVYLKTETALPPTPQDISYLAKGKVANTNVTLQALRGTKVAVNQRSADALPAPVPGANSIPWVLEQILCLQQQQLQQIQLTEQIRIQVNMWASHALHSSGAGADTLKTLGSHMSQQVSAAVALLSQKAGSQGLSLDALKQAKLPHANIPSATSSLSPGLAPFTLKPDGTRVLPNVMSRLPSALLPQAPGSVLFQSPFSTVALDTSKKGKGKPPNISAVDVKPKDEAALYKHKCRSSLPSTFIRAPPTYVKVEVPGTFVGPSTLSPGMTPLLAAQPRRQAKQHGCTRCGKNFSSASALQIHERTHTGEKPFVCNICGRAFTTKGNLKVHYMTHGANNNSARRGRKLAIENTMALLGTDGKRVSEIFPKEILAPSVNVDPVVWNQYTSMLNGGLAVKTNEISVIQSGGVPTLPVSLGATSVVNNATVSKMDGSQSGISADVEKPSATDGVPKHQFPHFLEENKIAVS
Sequence,E-score
AGATCTAA,-0.00389
GAAGACCC,-0.17
CCCAGCAG,-0.207
CCAGCACG,-0.207
AGACATCT,0.134
AACGCAAC,0.0353
CTTGACAA,0.134
CCGTCCTC,-0.143
GGCCTATA,-0.0232
CTGACTAA,0.0826
AGATGGCG,-0.186
GATTCGGA,0.0921
AACACCGT,-0.07
CCTCTGCA,-0.0863
CACTGTAG,0.175
AGACTTTG,-0.0332
CAGACAAA,0.0866
TACTCGAA,0.193
CCAGACGG,-0.382
GCCCGGTA,-0.302
CGCGAAAA,-0.0214
ATCCCCAA,0.0324
GGGCGGAC,-0.418
CGCAAACG,-0.0737
GCCGCGCC,-0.3

# Block 4
# Target: RING finger protein unkempt homolog, zinc fingers 1-6, GST-SBP tag (UNK, Homo sapiens, UniProt Q9C0B0, residues 30-357)
# Method: RNA Bind-n-Seq
# Form: RNA
# Matrix: in vitro
# Tested at: not given
# Setting: RNA with constant flanks, human and mouse sites, ends assumed
# Reference: input RNA pool
# Direction: higher = stronger binding
# All sequences stand within: GGGAGUUCUACAGUCCGACGAUC … CAACAGAGGAUUGAGCAUCA
# Construct (chain): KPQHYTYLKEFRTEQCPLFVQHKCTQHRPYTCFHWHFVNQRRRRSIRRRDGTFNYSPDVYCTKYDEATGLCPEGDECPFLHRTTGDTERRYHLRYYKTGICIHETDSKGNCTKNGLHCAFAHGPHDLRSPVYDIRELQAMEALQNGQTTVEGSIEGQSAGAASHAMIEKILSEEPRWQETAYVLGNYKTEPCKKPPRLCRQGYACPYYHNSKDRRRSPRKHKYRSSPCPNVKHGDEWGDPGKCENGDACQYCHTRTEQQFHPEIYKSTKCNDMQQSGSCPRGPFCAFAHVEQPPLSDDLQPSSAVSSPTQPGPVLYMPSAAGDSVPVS
Sequence,bound/input enrichment [ratio]
GGCCAGGUGCUGAGCCUCUGCAGCAGCAUCAAGGAGGCCCCCGUCAAGGCGGCCGAGAUCUGGAUCGCCUCCCUGUCCAGCCAGCCCAUUGACCACGAAGACAGCACCAUGCAGGCCGGC,0.0889
GAUAAUGACCAUCUUCAACUUUCUGCAGAAGUCGUGGAAGGUAGUAGAUACCAGGAAUCAUUAGGCAAUACAGUAUUUGAGUUGGAAAACAGAGAGGCAGAGGCAUACACUGGUCUUUCA,0.973
AAAAGAGAAAAUGGUGCUAGAGACAAGUAGUUUAUUUAGUAAGCAGUGUUUUUAUUCCUUAGUUAGAUUUUAAGCUGCUUUUUGUCUUCAGAAGCUUUUAAAAAGAAAAGCGAAUUAGGU,9.04
AAAAGUGCUGAAGAUGCUAAAACUAUUUAUGAAUUCACAGACACAGUGAUAAGGAUCAGAAACCGGCACAAUGAUGUCAUUCCCACCAUGGCCCAGGGUGUGACUGAAUACAAGGAGAGC,0.174
UGCCGAGCUGCGUCACGUCAUGACGAACCUGGGGGAGAAGCUGACAGAUGAGGAAGUGGAUGAGAUGAUCCGAGAGGCCGACAUUGAUGGAGAUGGCCAGGUCAAUUAUGAAGAGUUUGU,0.274
AAAAAAAAAGCUGAACAGCUGCAGAGGAAGACACGUUAUACCCUAACCAUCUUGGAUGCUGGGCUUUGUUAUGCUGUAAUUCAUAAGGCUCUGUUUUAUCAGAGAUUAUGGAGCAAGAAA,0.106
UGUGUGAGUGUGUGCGCGAGUGUGCGCGCGCGCGUGUGAGAGAGAAAGGGCGAGAGAGAGGGGGACUCUUGUGUGAGGGAAAGAAAACAAUUUCUCCUGCUCUGCAGCUUCUGUUCAGCU,0.117
AUGGUUCACUUGACUCUUCUCUGGUUUCUCCCUGCUGCCCUGGUUCUAGGUGGGCUCAGCCUGAGGUAUUGUAGUUGUCAUGUAGUCACUAUUGUGACUACCUGUUGUGUGCUAUUGCCC,0.461
CACCUAAGAGAUAAGAGCACCGACUGCUGUGGGGAUAAUGAUCCCAUUGACGUCUGUGAAAUAGGCUCAAAGGUUCUUUCCCGUGGAGACGUGGUCCAUGUGAAGAUCCUUGGGACUUUG,0.135
UUAGCUUAUGGCAAUCAAGAGAGCAAGCUCAUCAUUCUGGCCAGUGGUGGACCCCAAGCCUUAGUAAACAUAAUGAGGACCUACACUUAUGAGAAGCUUCUGUGGACCACAAGCAGAGUG,3.4
GGUGUUCCCUCUUUUUUUCCACGAGGGUGUUUUUGGCUGCAAUUGCAUGAAAUCCCAAUGGUGUAGACCAGUGGCGAUGGAUCUAGGAGUUUACCAACUGAGACAUUUUUCAAUUUCUUU,0.629

# Repeated from above (block 3):
Sequence,E-score
CTGACTAA,0.0826
AGATGGCG,-0.186
GATTCGGA,0.0921
AACACCGT,-0.07
CCTCTGCA,-0.0863
CACTGTAG,0.175
AGACTTTG,-0.0332
CAGACAAA,0.0866
